Results pooled from the literature.
Parts stem from different laboratories: compare values within a part only.

Series 1
Sequence: VKTKKRLNFDDK
Molecule type: peptide
Direction: direction not given
tested on	test	test system	setting	enrichment score
Saccharomyces cerevisiae	binding, competitive growth deep sequencing	cyclin E1-Cln2 fusion strain	peptide tiling library	-0.546
human cyclin A2	competitive growth deep sequencing	Saccharomyces cerevisiae, cyclin A2-Cln2 fusion strain	peptide tiling library	1.68
Saccharomyces cerevisiae	mating pheromone growth arrest, pooled competitive growth deep sequencing	no Cln2 overexpression	peptide tiling library	0.0388
–	peptide binding	yeast competitive growth	together with: B1-Cln2 chimera	-0.178
Cln2 (Saccharomyces cerevisiae)	peptide binding, competitive growth sequencing	Saccharomyces cerevisiae, unfused Cln2 strain	peptide tiling library	-0.927

Series 2
Target: RNA binding protein fox-1 homolog 2, RRM domain, GST-SBP tag (RBFOX2, Homo sapiens, UniProt O43251-10, residues 100-194)
Method: RNA Bind-n-Seq
Molecule type: RNA
Sample: in vitro
Concentration: 365 nM
Notes: natural RNA segment, single round, ends assumed
Baseline: no-protein control
Direction: higher = stronger binding
All sequences stand within: GGGAGUUCUACAGUCCGACGAUC … UGGAAUUCUCGGGUGCCAA
Target sequence (chain): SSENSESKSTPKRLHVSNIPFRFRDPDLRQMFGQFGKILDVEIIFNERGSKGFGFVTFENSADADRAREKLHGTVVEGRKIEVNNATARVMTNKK
Strand	RBNS enrichment (R)
UGACAAAAUAUAUUUAUAACUACGUAUUAAAAGAAAAAAAUAAAAUGAGUCAUUAUUUUAAAGGUAAUCAUGAUUUUUUUUUUCUCCUUAAUCCUUUCUCUUUUCCUUCG	0.724
UCACUGUCCCCAUCGGCUCCUCAGAGUUGUUGGCCACCCUACCACUAACUGGAAGAGGAAACGCUGGGGCUGCAGUGAGGGCUCCAAGCUUCUCAGUGCCAACCACGCCC	0.201
UAGUUAAGAGGUUCCACAGAGUAUUUUCCUUUCUGCUCCCAGUACCUCUCAAACGAUCUUUAGAUAGUUAACUUCUACUACUAUUUAACGUUAUCUUUUAGCACUCAUAG	0.644
UCUAUUGUGCUGUAAGUUGAUGUUUAAAAUUGAGAAAUACUUUUGUCAUAGGUAAUUUGGAACAUUUACAAGCCAUUUGUAAAAUUUUAAGAUAAUCUGUAACUAAUACA	0.654
UUUGUCUCGGUUGCUAUUCCAAGAACAGAAGGAGGAAGUUGGCCAAUUACAGCGUGUGUGCAUGGAUGUGUGUGGGGGGCGUGCCUCUCAGAAACGCGGCCAGAAGACAA	2.55
GCCAUUCGGACCCGACCGAUGUAAAUACAGCCGCCCGUCCGCCCGCCUUCCUCCCGGGCUCCCCGGCCUUGCCCGCCCCCUCCCGGGCGUCCCUGUCCAGGGCCCCGGCU	0.234
GCCCCAUGUGUCCUGGUGAGAAAAUAUAUGCCUGGCACAGCUUUUGUAUAGAAAAUUCUUGAGAAGUAACUGUCCGCUAGAAGUCUGUCCAAAUUUAAAAUGUGUGCCAU	0.361
CACCCAUGUAGCUGCUGUGUUGUGUAUAUAUUACUCUUAAGAGGAGUGUGUGUGUCUGUGUUUGUUUUAAAAGUCACUUAUUUCUUACAGUGAUUUCAAUUGCACCAUGA	1.61

Series 3
Target: Histone acetyltransferase KAT6A, winged helix 1, GST fusion (KAT6A, Homo sapiens, UniProt Q92794, residues 1-85)
Method: protein binding microarray
Molecule type: double-stranded DNA, one strand shown
Sample: in vitro
Concentration: not given
Notes: 8-mer, flanks averaged, mean of 2 arrays, mostly near background
Baseline: not given
Direction: higher = stronger binding
Residues (chain): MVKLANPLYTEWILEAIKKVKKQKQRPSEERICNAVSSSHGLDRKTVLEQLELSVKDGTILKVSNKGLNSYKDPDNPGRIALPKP
Strand	E-score
CGTTAAGC	0.18
GGTAGACA	-0.0236
CCGAGAGA	-0.0924
TATCACAA	-0.18
AGACCTCT	-0.169
ATATGTCG	-0.0202
TACAGAGA	-0.0487
ACTCGTGC	0.0647
AGAGTCTC	-0.0575
CCTCCAGA	-0.0944
ATGTCACA	-0.119
CCGTAACG	0.376
CCTTATTC	-0.224
CGTCTTAG	0.0155
CACCAACC	-0.181
TGGTGTAA	-0.155
AGGCATTA	-0.229
CAAACTAA	-0.0783
TCGCCTAA	0.106

Series 4
Target: RING finger protein unkempt homolog, zinc fingers 1-6, GST-SBP tag (UNK, Homo sapiens, UniProt Q9C0B0, residues 30-357)
Sequence of UniProt Q9C0B0 (30-357, looked up): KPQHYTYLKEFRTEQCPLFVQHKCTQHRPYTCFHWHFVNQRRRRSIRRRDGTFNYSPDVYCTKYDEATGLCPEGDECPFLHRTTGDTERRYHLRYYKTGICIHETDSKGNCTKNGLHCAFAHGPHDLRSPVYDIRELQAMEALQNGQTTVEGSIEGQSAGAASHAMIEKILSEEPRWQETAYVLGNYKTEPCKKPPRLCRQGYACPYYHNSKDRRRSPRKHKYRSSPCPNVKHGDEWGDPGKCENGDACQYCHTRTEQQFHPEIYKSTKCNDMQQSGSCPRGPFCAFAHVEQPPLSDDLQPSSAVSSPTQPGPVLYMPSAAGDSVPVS
Method: RNA Bind-n-Seq
Molecule type: RNA
Sample: in vitro
Concentration: not given
Notes: RNA with constant flanks, human and mouse sites, ends assumed
Baseline: input RNA pool
Direction: higher = stronger binding
All sequences stand within: GGGAGUUCUACAGUCCGACGAUC … CAACAGAGGAUUGAGCAUCA
Strand	bound/input enrichment
UUCAAAGAGAAAACCCAGCAGUGGAAAUUGCUUGGUCAAUCUCAAGAUAAUGAAAAGGAAUUAGCUGCUCUCUUCCACCUGUGGCUGGAAACCAAAGACCAGGCCUUCUGUAAGGAAAAU	0.162 ratio
AAAUAUCCUCAGCUAUUUCAGGUGACACUGGAUGUAGAACUACAGCCCCAUGACAAAGUAAUAGACUUAACUCCACCAUGGGAACAUUACUGCACAAAAGAUGUCAAUCCCAGCAUCCUC	0.217 ratio
ACAAUCGUUGACACAGUGGGAUUUGGAGACCAGAUUAAUAAAGAUGACAGCUAUAAGCCUAUAGUGGAAUACAUUGACGCCCAGUUUGAGGCCUACUUGCAAGAAGAAUUGAAAAUUAAA	0.341 ratio
GACACAGUGUGUCUCUCUGAUUGGGCUUCUAAAUCAAAAGCCUGAUGUUCGUGUCCCUCUCAUAGGGGGAGCUUUGGACACAGGACCAGUUUGGAAAAGGGUCAGGUAAGGGUUUCCACU	0.143 ratio
GGCUGCAUAACUGGAGUCUGUAGAACAGAGCUGAAGCUAAGGAUUUAAAUGUGGUCACCGUCCCUGGAGGAUUUGUUGGUCCUGGGUCUACAGUACUGUGAUACAAGGUGACUCAGUGGG	0.336 ratio
AGUCUGGCCGUACCACUGUGGCUGCUGGCAGCGUCCCUGUUCUGCCUUCUCAGCAAAUGUUAAUAGAAUAAAAAUUUAAAAAUAAUUACAAAAACACACAAAAAUGCGUCACACAGAUAC	13 ratio
ACAACGGUUUCCCUUUGAAGGGGACGGACAAAGCCCGAGUGACCAGCGGCGGCGGGGAGGACUAGUCCCCGGGCAGUUUGGUGCCCUGGUUGUCAGAUGUUGGAAAGCAGUAGGACGGAA	0.272 ratio
GAACCGAAAGGCCAAAUCCCCUCCUCCCUUCUCCUGCUUCUGCCAACCGGAAGCACAGAAAACUAGAACUUCAUUGAUUUUGUUUUUUAAAAGAUACACUGAUUUAACAUCUGAUAGGAA	1.04 ratio

Repeated from above (series 3):
Strand	E-score
CCGTAACG	0.376
CCTTATTC	-0.224
CGTCTTAG	0.0155
CACCAACC	-0.181
